Measurements pooled from the literature.
Each line is one published result; not all experiments were run side by side. “And” joins repeats or separate records; there may be more than shown. Numbers after ± are the reported error. Values after ≈ are worked out from the molar mass of the structure shown.

Structure (SMILES)	assay	system	conditions	scale	endpoint	value
COc1ccc(-c2nc(OCC(F)(F)F)nn2-c2ccc(OC)cc2)cc1 [carbon-11 labelled]	PET	rhesus monkey, whole brain	iv, dose not given, baseline	–	time to peak brain radioactivity	9 min
O=C1N=C(N2CCOCC2)CN1c1ccc(Cl)cc1	–	beagle dog, male, urine and cage wash	oral, 20 mg/kg, 0 to 264 h, cumulative radioactivity, added: 14C-label	–	fraction excreted	> 26.7 and 38
CC[C@H](C)[C@H](NC(=O)[C@H](Cc1ccccc1)NC(=O)[C@H](CCC(=O)O)NC(=O)[C@H](CCCCNC(=O)COCCOCCNC(=O)COCCOCCNC(=O)CC[C@H](NC(=O)CCCCCCCCCCCCCCCCC(=O)O)C(=O)O)NC(=O)[C@H](C)NC(=O)[C@H](C)NC(=O)[C@H](CCC(N)=O)NC(=O)CNC(=O)[C@H](CCC(=O)O)NC(=O)[C@H](CC(C)C)NC(=O)[C@H](Cc1ccc(O)cc1)NC(=O)[C@H](CO)NC(=O)[C@H](CO)NC(=O)[C@@H](NC(=O)[C@H](CC(=O)O)NC(=O)[C@H](CO)NC(=O)[C@@H](NC(=O)[C@H](Cc1ccccc1)NC(=O)[C@@H](NC(=O)CNC(=O)[C@H](CCC(=O)O)NC(=O)C(C)(C)NC(=O)[C@@H](N)Cc1cnc[nH]1)[C@@H](C)O)[C@@H](C)O)C(C)C)C(=O)N[C@@H](C)C(=O)N[C@@H](Cc1c[nH]c2ccccc12)C(=O)N[C@@H](CC(C)C)C(=O)N[C@H](C(=O)N[C@@H](CCCNC(=N)N)C(=O)NCC(=O)N[C@@H](CCCNC(=N)N)C(=O)NCC(=O)O)C(C)C	–	human highest body weight	1.0 mg once weekly, 116.8-198.3 kg	–	average steady-state concentration	21 nmol/L
CCCC[C@H](NC(C)=O)C(=O)N[C@H]1CCC(=O)NC[C@@H](C(=O)N[C@@H](Cc2c[nH]c3ccccc23)C(N)=O)NC(=O)[C@H](CCCNC(=N)N)NC(=O)[C@@H](Cc2ccccc2)NC(=O)[C@H](Cc2c[nH]cn2)NC1=O	–	male rat, plasma	subcutaneous, 25 mg/kg/day, multiple doses, once daily	–	Tmax	1 h
O=C(O)CNC(=O)c1cccc(O)c1	untargeted mass spectrometry	human normal subjects, plasma ultrafiltrate	–	–	unbound fraction in plasma	35 ± 6%
O=C(Nc1c(Cl)c[n+]([O-])cc1Cl)c1ccc(OC(F)F)c(OCC2CC2)c1	–	human patients, age 6-11 years, plasma	topical, 0.3% cream once daily, week 8	–	Ctrough	4.3 ng/mL
COc1cc2c(cc1OC)CN(CCc1ccc(NC(=O)c3cccc4c(=O)c5cccc(OC)c5[nH]c34)cc1)CC2	–	Solutol microemulsion	24 h, 37 °C	–	solubility	840 ± 30 µg/mL (≈ 1490 µM)
CC[C@H](C)[C@@H]1NC(=O)[C@H](Cc2ccc(O)cc2)NC(=O)[C@@H](N)CSSC[C@@H](C(=O)N2CCC[C@H]2C(=O)N[C@@H](CC(C)C)C(=O)NCC(N)=O)NC(=O)[C@H](CC(N)=O)NC(=O)[C@H](CCC(N)=O)NC1=O	microdialysis, radioimmunoassay	knock-out male mice lacking compound, hippocampus extracellular fluid	intranasal, 12 µg, incremental area over baseline	–	AUC above baseline	185 ± 96 pg·30 min/sample
C[N+]1(CC(=O)OC2CCCCC2)CCCCC1.[I-]	metabolic stability	human, liver microsomes	1 µM, pH 7.4	–	half-life	> 1 h
O=C(O)/C=C/c1ccccc1	–	rat plasma QC sample	1 ng/mL nominal, 15 days, -80 °C, low QC level storage stability	–	measured concentration	0.96 ± 0.08 ng/mL
O=C(CCCCCCC(=O)Nc1ccccc1)NO	–	patients, serum	oral, 400 mg, cycle -1, alone	–	AUC(0-7 h)	8.06 µM·h
CCCOc1ccc([C@H]2CNC(=O)N2c2ccc3[nH]cnc3c2)cc1	–	human, elderly, fasted, cerebrospinal fluid	oral, 500 mg twice daily, tablet, 12 h, day 11, minimum, estimated	–	CSF concentration	26.2 ng/mL
Cc1cnc(NC(=O)C2=C(O)c3ccccc3S(=O)(=O)N2C)s1	–	Sprague-Dawley rat, male, liver	oral, 12 mg/kg, 6 h, single high dose	direction not given	hepatocyte vacuolization score	0
CN1CC[C@@H](NC(=O)Nc2ccc(C#N)cc2)C[C@@H]1c1nc2ccccc2[nH]1	–	human, moderate hepatic impairment, plasma	oral, 100 mg, single dose, fasted	–	unbound Cmax	75.8 ± 19.2 ng/mL
CC(C)C[C@H](NC(=O)[C@H](CC(C)C)NC(=O)[C@@H](NC(=O)[C@H](Cc1ccccc1)NC(=O)[C@@H](Cc1c[nH]c2ccccc12)NC(=O)[C@@H](N)CCCCN)[C@H](c1ccccc1)c1c[nH]c2ccccc12)C(N)=O	RP-HPLC Jupiter Proteo	–	acetonitrile/water TFA gradient	–	HPLC retention	55.3 %B
CS(=O)(=O)Nc1ccc(C(=O)O[C@@H](Cc2c(Cl)c[n+]([O-])cc2Cl)c2ccc(OC(F)F)c(OCC3CC3)c2)cc1OCC1CC1	–	human, plasma	inhaled, 2400 µg twice daily, day 14, multi-dose dry powder inhaler	–	Cmax	6.92 ng/mL
CC(C)C[C@H](NC(=O)[C@H](CCCNC(=N)N)NC(=S)Nc1ccc(C[C@H]2CN(CC(=O)O)CCN(CC(=O)O)CCN2CC(=O)O)cc1)C(=O)N[C@@H](CC(N)=O)C(=O)N[C@H](C(=O)NCC(=O)NCC(=O)N[C@H](C(=O)N[C@@H](Cc1ccc(O)cc1)C(=O)N[C@@H](Cc1ccccc1)C(=O)N[C@@H](CC(C)C)C(=O)N[C@H](C(=O)N[C@H](C(=O)N[C@@H](CCCNC(=N)N)C(=O)N[C@@H](CCC(N)=O)C(=O)O)[C@@H](C)O)[C@@H](C)O)[C@@H](C)O)C(C)C	reverse-phase HPLC	–	–	–	HPLC retention time	14.5 min
COc1cccc(N2CCN(C3=Nc4c(F)cccc4[C@H](CC(=O)O)N3c3cc(C(F)(F)F)ccc3OC)CC2)c1	UHPLC-MS/MS	healthy women, plasma	intravenous infusion, 120 mg single dose, 30 min infusion, HPβCD formulation	–	terminal half-life	12.2 ± 4.32 h
COc1ccc2cc3[n+](cc2c1OC)CCc1cc2c(cc1-3)OCO2	–	rat plasma QC sample	0.5 ng/mL nominal, 15 days, -80 °C, low QC level storage stability	–	measured concentration	0.56 ± 0.06 ng/mL
O=C(c1ccc(OCCN2CCCCC2)cc1)c1c(-c2ccc(O)cc2)sc2cc(O)ccc12	–	healthy humans, plasma	oral, 60 mg, added: chronic green tea	–	AUC(0-48 h)	0.00626 µM·h
CN(C)C(=N)N=C(N)N	–	Sprague-Dawley rat, male, liver	oral, 1500 mg/kg, 6 h, single high dose	direction not given	hepatocyte vacuolization score	0
COc1cccc2c1C(=O)c1c(O)c3c(c(O)c1C2=O)C[C@@](O)(C(=O)CO)C[C@@H]3O[C@H]1C[C@H](N)[C@H](O)[C@H](C)O1	–	mouse, E0771 tumour-bearing, kidney	intravenous, 92 µmol/kg	–	terminal half-life	36 h
Cn1c(-c2ccc(C(N)=O)cc2F)nnc1C(C)(C)Oc1c(F)cc(Cl)cc1F	–	healthy young Japanese subjects, plasma	oral, 20 mg once daily, day 18, 14 days dosing	–	Cmax mean	294 ng/mL
CC(C)[C@H](NC(=O)[C@@H]1CCCN1C(=O)[C@H](CCCNC(=N)N)NC(=O)[C@H](CS)NC(=O)[C@H](Cc1c[nH]c2ccccc12)NC(=O)[C@H](CCCNC(=N)N)NC(=O)[C@@H](Cc1ccccc1)NC(=O)[C@H](Cc1c[nH]cn1)NC(=O)[C@H](CCC(=O)O)NC(=O)[C@H](CS)NC(=O)[C@H](CS)NC(=O)[C@H](CCCCN)NC(=O)[C@@H]1CC(=O)N[C@@H](CCCNC(=N)N)C(=O)N[C@@H]([C@@H](C)O)C(=O)N[C@@H](CC(=O)O)C(=O)N[C@H](Cc2ccc(O)cc2)C(=O)N1)C(N)=O [technetium-99m labelled]	–	C57 mouse, female, B16/F1 melanoma, spleen	intravenous, 2 h, added: NDP-MSH 10 µg co-injected	–	tissue uptake	0.64 ± 0.37 %ID/g
Nc1ccn([C@@H]2O[C@H](CO)[C@@H](O)C2(F)F)c(=O)n1	–	THU-treated rat plasma	125.00 ng/mL, -80 to 20 °C, three freeze-thaw cycles, mid QC	–	measured concentration	134 ± 11.6 ng/mL
CC(C)=CCC[C@](C)(O[C@@H]1O[C@H](CO)[C@@H](O)[C@H](O)[C@H]1O)[C@H]1CC[C@]2(C)[C@@H]1[C@H](O)C[C@@H]1[C@@]3(C)CC[C@H](O[C@@H]4O[C@H](CO)[C@@H](O)[C@H](O)[C@H]4O[C@@H]4O[C@H](CO)[C@@H](O)[C@H](O)[C@H]4O)C(C)(C)[C@@H]3CC[C@]12C	–	rat, extracted tissue homogenate QC samples	1.0 µg/mL, 24 h, 15 °C, autosampler	–	post-preparative stability accuracy	93.5 ± 8%
COc1cc(/C=C/C(=O)CC(=O)/C=C/c2ccc(O)c(OC)c2)ccc1O	I-125 label	C57BL/6J mouse, cerebral cortex	intranasal vs intraperitoneal, 10 µg/mouse IN, 100 µg/mouse IP, 12 h	reference: intranasal over intraperitoneal	brain uptake ratio	3.9
Cc1ccc(NC(=O)c2ccc(CN3CCN(C)CC3)cc2)cc1Nc1nccc(-c2cncc(-c3oncc3C)c2)n1	–	Parkinson's disease patients, plasma	oral, 100 mg once daily, day 7, 7-day dosing, mean	–	dose-normalised Cmax	33.2 ng/mL/mg

Repeated from above:
Structure (SMILES)	assay	system	conditions	scale	endpoint	value
O=C(O)/C=C/c1ccccc1	–	rat plasma QC sample	1 ng/mL nominal, 15 days, -80 °C, low QC level storage stability	–	measured concentration	0.96 ± 0.08 ng/mL
O=C(CCCCCCC(=O)Nc1ccccc1)NO	–	patients, serum	oral, 400 mg, cycle -1, alone	–	AUC(0-7 h)	8.06 µM·h
CCCOc1ccc([C@H]2CNC(=O)N2c2ccc3[nH]cnc3c2)cc1	–	human, elderly, fasted, cerebrospinal fluid	oral, 500 mg twice daily, tablet, 12 h, day 11, minimum, estimated	–	CSF concentration	26.2 ng/mL
Cc1cnc(NC(=O)C2=C(O)c3ccccc3S(=O)(=O)N2C)s1	–	Sprague-Dawley rat, male, liver	oral, 12 mg/kg, 6 h, single high dose	direction not given	hepatocyte vacuolization score	0
